Results from different studies.
Numbered parts are unrelated; each lists some results of a single study. Values joined by “and” are separate records of one study, mostly repeats; a detail may differ.
UniProt P42336, sequence (whole entry, unmodified, looked up): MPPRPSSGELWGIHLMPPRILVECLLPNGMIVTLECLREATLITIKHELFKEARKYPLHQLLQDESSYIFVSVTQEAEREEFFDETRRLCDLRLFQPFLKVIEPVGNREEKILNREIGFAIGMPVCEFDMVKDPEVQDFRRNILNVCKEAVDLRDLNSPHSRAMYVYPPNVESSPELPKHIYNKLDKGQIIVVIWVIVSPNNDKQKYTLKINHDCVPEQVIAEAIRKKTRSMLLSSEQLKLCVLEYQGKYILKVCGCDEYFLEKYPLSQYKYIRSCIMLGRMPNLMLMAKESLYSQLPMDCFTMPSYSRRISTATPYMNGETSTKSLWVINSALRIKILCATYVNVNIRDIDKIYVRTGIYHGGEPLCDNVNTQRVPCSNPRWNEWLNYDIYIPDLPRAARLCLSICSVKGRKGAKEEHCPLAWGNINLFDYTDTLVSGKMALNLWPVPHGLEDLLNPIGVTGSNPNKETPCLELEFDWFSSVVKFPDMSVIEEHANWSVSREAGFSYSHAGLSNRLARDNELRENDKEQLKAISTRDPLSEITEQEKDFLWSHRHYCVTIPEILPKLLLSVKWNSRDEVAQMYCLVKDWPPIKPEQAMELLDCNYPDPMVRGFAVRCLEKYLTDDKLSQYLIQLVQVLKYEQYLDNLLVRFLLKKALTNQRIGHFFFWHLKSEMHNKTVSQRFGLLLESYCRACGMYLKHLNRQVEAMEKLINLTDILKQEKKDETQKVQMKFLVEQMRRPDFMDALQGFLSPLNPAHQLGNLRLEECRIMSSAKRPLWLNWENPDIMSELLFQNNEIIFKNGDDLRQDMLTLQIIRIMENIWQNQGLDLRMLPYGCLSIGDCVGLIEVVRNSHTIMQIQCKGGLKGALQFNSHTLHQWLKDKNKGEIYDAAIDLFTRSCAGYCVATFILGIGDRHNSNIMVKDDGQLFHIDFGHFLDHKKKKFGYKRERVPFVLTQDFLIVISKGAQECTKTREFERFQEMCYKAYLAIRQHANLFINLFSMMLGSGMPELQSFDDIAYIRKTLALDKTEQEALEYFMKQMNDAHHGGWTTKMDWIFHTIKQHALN
UniProt Q16620, sequence (whole entry, looked up): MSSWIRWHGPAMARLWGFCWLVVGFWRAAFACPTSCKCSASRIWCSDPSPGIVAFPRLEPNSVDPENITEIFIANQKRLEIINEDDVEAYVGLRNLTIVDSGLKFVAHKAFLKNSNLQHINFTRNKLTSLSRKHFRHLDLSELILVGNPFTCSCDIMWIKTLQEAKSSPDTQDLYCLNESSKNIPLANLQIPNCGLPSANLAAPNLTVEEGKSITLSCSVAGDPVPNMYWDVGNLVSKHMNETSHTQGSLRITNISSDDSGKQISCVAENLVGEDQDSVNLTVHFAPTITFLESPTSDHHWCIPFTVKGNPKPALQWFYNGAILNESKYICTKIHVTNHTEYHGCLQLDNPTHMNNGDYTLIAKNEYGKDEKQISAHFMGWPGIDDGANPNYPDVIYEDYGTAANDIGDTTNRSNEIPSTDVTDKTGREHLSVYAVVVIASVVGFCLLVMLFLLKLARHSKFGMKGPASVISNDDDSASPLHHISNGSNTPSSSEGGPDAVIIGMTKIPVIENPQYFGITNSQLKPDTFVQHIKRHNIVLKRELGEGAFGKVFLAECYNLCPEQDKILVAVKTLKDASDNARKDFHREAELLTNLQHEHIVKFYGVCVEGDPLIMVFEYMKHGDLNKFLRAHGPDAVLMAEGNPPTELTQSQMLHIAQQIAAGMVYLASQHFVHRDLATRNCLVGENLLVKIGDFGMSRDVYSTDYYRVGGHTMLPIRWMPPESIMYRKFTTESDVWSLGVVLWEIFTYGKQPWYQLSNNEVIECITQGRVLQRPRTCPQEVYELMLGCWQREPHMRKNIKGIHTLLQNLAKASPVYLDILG
UniProt Q8IWQ3, sequence (whole entry, looked up): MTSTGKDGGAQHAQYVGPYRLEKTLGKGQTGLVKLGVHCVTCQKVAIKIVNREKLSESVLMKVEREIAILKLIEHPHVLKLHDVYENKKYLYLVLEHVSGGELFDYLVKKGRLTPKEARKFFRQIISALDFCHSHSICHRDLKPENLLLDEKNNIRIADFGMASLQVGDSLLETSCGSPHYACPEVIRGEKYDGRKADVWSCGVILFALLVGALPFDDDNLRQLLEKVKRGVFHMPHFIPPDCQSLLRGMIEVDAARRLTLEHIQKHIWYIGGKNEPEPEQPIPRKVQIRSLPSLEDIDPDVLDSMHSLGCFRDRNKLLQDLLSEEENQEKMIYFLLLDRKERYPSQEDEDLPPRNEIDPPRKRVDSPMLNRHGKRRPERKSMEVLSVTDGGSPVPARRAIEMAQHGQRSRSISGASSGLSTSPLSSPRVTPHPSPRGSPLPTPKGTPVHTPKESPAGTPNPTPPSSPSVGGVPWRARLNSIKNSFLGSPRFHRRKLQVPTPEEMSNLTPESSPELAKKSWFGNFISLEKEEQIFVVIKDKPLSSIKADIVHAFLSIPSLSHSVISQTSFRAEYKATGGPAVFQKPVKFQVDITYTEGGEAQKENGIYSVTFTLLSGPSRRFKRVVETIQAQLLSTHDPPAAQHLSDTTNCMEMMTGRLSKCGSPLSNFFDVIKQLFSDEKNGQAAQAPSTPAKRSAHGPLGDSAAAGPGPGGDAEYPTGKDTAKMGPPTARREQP
UniProt P08631, sequence (whole entry, looked up): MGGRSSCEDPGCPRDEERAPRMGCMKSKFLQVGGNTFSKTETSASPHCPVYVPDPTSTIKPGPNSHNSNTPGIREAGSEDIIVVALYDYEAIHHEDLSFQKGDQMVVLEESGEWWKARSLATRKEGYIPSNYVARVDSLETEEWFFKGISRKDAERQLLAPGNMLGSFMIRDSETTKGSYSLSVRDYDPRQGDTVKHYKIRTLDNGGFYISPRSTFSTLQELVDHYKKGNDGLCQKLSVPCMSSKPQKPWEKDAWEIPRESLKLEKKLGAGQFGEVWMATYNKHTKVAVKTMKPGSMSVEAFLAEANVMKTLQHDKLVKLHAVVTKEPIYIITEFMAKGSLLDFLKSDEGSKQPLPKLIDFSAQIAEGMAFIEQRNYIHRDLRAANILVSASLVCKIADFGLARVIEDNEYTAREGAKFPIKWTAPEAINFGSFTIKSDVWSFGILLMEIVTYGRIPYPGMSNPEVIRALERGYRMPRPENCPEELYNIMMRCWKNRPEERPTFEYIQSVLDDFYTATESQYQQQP
UniProt Q59H18, sequence (whole entry, looked up): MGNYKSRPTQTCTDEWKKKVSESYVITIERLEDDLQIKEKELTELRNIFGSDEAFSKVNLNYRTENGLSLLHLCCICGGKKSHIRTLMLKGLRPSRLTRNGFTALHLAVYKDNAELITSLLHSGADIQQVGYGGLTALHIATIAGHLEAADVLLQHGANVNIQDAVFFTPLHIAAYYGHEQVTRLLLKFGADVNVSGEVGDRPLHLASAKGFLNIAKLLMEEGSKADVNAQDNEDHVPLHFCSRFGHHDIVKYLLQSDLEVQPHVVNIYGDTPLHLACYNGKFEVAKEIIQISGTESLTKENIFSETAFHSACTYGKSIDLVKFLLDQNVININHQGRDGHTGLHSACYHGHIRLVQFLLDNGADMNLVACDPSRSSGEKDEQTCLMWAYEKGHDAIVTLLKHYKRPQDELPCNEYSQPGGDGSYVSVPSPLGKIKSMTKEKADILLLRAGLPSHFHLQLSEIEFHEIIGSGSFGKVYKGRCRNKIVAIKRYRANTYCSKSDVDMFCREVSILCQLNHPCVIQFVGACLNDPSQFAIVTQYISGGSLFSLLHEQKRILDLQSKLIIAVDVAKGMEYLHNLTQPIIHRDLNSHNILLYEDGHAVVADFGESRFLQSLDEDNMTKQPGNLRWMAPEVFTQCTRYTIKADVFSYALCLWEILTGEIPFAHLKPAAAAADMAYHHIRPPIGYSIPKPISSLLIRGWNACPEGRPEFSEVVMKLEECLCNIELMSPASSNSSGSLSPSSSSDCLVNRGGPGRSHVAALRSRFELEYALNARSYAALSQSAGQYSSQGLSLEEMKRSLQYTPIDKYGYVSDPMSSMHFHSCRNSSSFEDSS

Series 1
Target: Ephrin type-B receptor 3 (EPHB3, Homo sapiens, UniProt P54753)
UniProt P54753, sequence (whole entry, looked up): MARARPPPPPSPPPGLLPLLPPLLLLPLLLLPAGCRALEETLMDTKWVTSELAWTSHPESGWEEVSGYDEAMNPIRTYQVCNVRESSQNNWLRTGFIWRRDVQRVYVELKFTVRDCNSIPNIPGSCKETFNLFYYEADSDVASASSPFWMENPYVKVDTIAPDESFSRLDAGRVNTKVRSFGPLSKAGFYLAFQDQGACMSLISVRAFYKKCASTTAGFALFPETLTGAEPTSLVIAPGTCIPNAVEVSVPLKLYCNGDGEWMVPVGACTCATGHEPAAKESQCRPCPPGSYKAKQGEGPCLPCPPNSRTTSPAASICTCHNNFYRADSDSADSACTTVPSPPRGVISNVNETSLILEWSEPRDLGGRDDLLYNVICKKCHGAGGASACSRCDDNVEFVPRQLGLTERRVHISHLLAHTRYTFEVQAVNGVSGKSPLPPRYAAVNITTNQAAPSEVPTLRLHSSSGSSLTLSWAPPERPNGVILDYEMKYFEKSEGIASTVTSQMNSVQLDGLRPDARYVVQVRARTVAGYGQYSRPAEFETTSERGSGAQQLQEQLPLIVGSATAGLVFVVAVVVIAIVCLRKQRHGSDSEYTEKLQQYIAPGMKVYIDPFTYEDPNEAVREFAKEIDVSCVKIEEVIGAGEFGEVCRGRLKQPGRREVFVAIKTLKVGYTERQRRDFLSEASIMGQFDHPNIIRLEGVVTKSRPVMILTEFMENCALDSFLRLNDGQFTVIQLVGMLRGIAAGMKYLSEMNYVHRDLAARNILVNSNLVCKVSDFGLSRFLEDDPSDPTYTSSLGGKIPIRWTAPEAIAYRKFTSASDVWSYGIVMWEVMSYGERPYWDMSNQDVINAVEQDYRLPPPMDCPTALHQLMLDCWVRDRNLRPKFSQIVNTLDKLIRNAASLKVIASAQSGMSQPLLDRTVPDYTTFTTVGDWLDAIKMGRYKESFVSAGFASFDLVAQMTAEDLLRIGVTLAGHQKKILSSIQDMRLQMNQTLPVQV
Effect on: enzyme activity
Mode: inhibitor
Tested at: 0.5 µM
Relative to: control
`FC(F)(F)c1ccc(/C=C/c2nc(COc3ccc(CCCCn4ccnn4)cc3)co2)cc1` has a remaining activity of 94.9%.
The remaining activity of `O=C1NC(=O)/C(=C/c2ccc3c(c2)OC(F)(F)O3)S1` is reported as 93.1%.
For `N#CC(c1ccnc(NCCc2cccnc2)n1)c1nc2ccccc2s1` (stereo not shown), the remaining activity was 91%.
For `CCN(CC)CCCCN1c2ccccc2Oc2ccc(Cl)cc21`, the remaining activity was 112%.
With `CC(C)n1cnc2c(Nc3cccc(Cl)c3)nc(NCCO)nc21` the remaining activity was 119%.
For `c1cc(-c2cnn3cc(-c4ccc(OCCN5CCCCC5)cc4)cnc23)ccn1`, the remaining activity was 97%.
`O=C1c2ccccc2-c2nc3nnnn3nc21` has a remaining activity of 90.2%.
For `C[C@@H](N)[C@H]1CC[C@H](C(=O)Nc2ccncc2)CC1`, the remaining activity was 95.9%.
`Nc1nc(Nc2ccc(S(N)(=O)=O)cc2)nn1C(=S)Nc1c(F)cccc1F` gave a remaining activity of 90.4%.
`N#C/C(=C(/N)SC1C=CC=CC1)c1cccc(C(O)c2ccncc2)c1` (stereo not shown) gave a remaining activity of 95.4%.
With `O=c1c(-c2ccc(F)cc2)c(-c2ccncc2)[nH]n1-c1ccc(Cl)cc1` the remaining activity was 92.2%.
`O=C(O)/C=C/c1cc(Br)c(Br)c(Br)c1Br` has a remaining activity of 89.8%.
`O=C(c1ccccc1)c1ccc(N2CCOCC2)cc1O` has a remaining activity of 92.2%.

Series 2
Compound: Cn1cc(Cl)c2c(Oc3c(F)cc(Nc4cc(Cl)nc(N)n4)cc3F)ccnc21
Effect on: cell-free assay
Technique: competition with immobilised ligand
Tested at: 0.1 µM
The remaining binding was 96% (NTRK2 (Homo sapiens, UniProt Q16620)).
MAP3K19 (Homo sapiens, UniProt Q56UN5) — remaining binding: 75%.
TIE1 (Homo sapiens, UniProt P35590) — remaining binding: 100%.
For EPHA1 (Homo sapiens, UniProt P21709): remaining binding read 100%.
The remaining binding was 95% (KIT (Homo sapiens, UniProt P10721)).
The remaining binding was 82% (PIK3CA (Homo sapiens, UniProt P42336, I800L)).
It gave 83% for remaining binding (PIK3CA (Homo sapiens, UniProt P42336, H1047L)).
For TGFBR2 (Homo sapiens, UniProt P37173): remaining binding read 90%.
For CDC42BPB (Homo sapiens, UniProt Q9Y5S2): remaining binding read 100%.
It gave 78% for remaining binding (TNNI3K (Homo sapiens, UniProt Q59H18)).
For CHEK1 (Homo sapiens, UniProt O14757): remaining binding read 100%.
For BRSK2 (Homo sapiens, UniProt Q8IWQ3): remaining binding read 100%.
HCK (Homo sapiens, UniProt P08631) — remaining binding: 100%.

Single results of other studies
The fluctuation of `COc1ccc(-c2c(Nc3ccccn3)[nH]c3c(C4=CCCCC4)c(-c4ccccc4)nn3c2=O)cc1` is reported as 40.1% and 63.3% and 42.7% (LC-MS/MS; human, plasma; oral, 50 mg once daily).
`CC(C)(C)OC(=O)NCCOCCOCCOCCNC(=O)CCCCn1ccnc1Cn1ccc2ccc(CNCc3[nH]c4ccccc4c3C3NC(=O)c4ccc(O)cc43)cc21` (stereo not shown) has an IC50 of 4.8 µM (GTPase KRas (KRAS, Homo sapiens, UniProt P01116, G12C); cell-based).

Repeated from above (series 1):
`N#C/C(=C(/N)SC1C=CC=CC1)c1cccc(C(O)c2ccncc2)c1` (stereo not shown) gave a remaining activity of 95.4%.
For `c1cc(-c2cnn3cc(-c4ccc(OCCN5CCCCC5)cc4)cnc23)ccn1`, the remaining activity was 97%.
